Measurements of several laboratories.
Protocols differ between the studies behind these lines. “And” joins repeats or separate records; there may be more than shown. ± marks the error that the study gave. Values after ≈ are worked out from the molar mass of the structure shown.
Sequence of UniProt Q9HCG7 (whole entry, looked up): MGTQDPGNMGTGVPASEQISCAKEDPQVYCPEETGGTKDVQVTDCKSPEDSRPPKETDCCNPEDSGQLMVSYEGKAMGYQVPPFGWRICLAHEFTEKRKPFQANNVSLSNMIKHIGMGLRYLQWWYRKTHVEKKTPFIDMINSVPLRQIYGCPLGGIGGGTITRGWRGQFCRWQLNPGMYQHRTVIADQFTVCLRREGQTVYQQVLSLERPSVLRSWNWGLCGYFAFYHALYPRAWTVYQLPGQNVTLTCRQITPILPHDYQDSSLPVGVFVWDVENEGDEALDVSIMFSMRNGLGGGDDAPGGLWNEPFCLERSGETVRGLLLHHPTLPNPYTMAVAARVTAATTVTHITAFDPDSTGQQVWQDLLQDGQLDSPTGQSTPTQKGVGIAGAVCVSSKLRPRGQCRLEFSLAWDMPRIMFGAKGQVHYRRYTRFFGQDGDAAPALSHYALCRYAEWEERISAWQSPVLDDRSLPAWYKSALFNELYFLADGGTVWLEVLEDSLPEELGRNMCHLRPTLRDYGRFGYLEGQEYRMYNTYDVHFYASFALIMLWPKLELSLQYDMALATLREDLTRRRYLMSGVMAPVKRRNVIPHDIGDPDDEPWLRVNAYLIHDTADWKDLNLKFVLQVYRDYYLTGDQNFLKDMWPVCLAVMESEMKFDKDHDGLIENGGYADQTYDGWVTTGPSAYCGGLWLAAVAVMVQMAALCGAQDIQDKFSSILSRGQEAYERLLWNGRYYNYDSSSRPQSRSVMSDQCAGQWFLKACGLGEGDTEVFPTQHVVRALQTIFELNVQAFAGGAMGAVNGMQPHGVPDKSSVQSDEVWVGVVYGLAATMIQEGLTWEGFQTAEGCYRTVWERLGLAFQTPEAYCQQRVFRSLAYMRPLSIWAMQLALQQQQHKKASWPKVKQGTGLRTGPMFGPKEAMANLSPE
Sequence of UniProt P10635 (whole entry, looked up): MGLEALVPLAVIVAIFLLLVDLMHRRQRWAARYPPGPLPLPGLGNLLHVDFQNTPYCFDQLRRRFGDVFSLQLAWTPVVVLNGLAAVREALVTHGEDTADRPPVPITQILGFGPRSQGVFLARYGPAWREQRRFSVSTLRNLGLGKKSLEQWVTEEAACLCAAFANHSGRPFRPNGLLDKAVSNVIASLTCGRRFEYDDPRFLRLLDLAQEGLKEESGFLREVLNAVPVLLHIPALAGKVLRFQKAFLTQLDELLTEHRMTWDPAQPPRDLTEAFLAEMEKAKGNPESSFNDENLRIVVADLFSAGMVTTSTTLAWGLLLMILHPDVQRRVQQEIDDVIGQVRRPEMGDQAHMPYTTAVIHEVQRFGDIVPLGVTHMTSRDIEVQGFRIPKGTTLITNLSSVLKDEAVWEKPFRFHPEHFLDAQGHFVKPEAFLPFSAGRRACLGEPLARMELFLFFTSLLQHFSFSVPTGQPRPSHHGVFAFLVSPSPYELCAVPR
Sequence of UniProt P35626 (whole entry, looked up): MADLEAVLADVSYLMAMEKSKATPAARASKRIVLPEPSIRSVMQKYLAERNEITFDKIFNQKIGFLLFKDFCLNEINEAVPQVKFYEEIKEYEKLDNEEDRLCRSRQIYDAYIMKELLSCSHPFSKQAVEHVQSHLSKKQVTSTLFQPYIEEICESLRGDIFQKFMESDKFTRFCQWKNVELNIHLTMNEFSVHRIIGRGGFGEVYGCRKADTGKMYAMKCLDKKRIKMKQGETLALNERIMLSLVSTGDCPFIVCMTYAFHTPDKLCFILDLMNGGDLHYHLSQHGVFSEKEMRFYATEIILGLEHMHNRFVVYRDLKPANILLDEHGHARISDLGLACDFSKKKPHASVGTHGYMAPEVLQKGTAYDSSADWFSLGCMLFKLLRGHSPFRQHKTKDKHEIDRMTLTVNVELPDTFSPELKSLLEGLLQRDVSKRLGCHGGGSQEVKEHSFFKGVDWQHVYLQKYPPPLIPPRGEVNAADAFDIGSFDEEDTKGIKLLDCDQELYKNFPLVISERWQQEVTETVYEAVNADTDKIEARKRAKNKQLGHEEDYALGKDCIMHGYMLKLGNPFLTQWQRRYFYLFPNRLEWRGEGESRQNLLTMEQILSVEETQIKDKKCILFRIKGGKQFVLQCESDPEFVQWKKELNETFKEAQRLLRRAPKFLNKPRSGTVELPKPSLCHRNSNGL

SMILES = CC(C)OCCOCc1ccc(OCC(O)CN(N=O)C(C)C)cc1 (stereo not drawn); target or system = Salmonella typhimurium; test = Ames test; test system = TA98; setting = 15.8 µg/plate, 30 % hamster S9; how to read = relative to: solvent control; endpoint = revertant fold increase; value = 1 fold
SMILES = COC1CN([C@H]2CC[C@H]([C@@]3(C)Oc4c(Cl)cc(C(=O)NCc5c(SC)cc(C)[nH]c5=O)c(C)c4O3)CC2)C1; test = RNA-seq, measured: TBC1D12 mouse homolog; test system = mouse, HT-1376 xenograft, whole blood; setting = dose not given; how to read = relative to: vehicle; endpoint = log2 fold change; value = 0.563
SMILES = C=C(NC(=O)c1csc(-c2nc3c(cc2O)-c2nc(cs2)C(=O)NC(C(C)O)C(=O)NC(=C(C)OC)c2nc(cs2)C(=O)NC2c4nc(cs4)C(=O)NC(COC(=O)c4c5c6c(cccc6n4O)COC(=O)C(OC4CC(C)(O)C(N(C)C)C(C)O4)C2OC5)c2nc-3cs2)n1)C(N)=O (stereo not drawn); test system = ICR mice, Streptococcus pneumoniae ATCC 49169 infected, immunocompromised, blood; setting = intravenous, 32 mg/kg/day once daily; endpoint = MRT(0-t); value = 3.7 h
SMILES = CCN(CC)c1ccc2c(c1)O[B-]1(c3ccccc3C#N)OC(=O)C(c3ccccc3)=N[N+]1=C2CC(C)C (stereo not drawn); test system = toluene; endpoint = molar absorption coefficient; value = 49000 M⁻¹ cm⁻¹
SMILES = CC(C)[C@H](NC(=O)[C@H](Cc1c[nH]c2ccccc12)NC(=O)[C@H](CCCNC(=N)N)NC(=O)[C@H](CCCNC(=N)N)NC(=O)[C@@H](NC(=O)[C@@H](NC(=O)[C@H](CCCNC(=N)N)NC(=O)[C@@H](NC(=O)[C@@H](NC(=O)[C@H](CCCNC(=N)N)NC(=O)[C@H](CCCNC(=N)N)NC(=O)[C@@H](NC(=O)[C@H](Cc1c[nH]c2ccccc12)NC(=O)[C@H](CCCNC(=N)N)NC(=O)[C@H](CCCNC(=N)N)NC(=O)[C@@H](NC(=O)[C@H](CCCNC(=N)N)NC(=O)[C@H](CCCNC(=N)N)NC(=O)[C@@H](NC(=O)[C@H](Cc1c[nH]c2ccccc12)NC(=O)[C@H](CCCNC(=N)N)NC(=O)[C@@H](N)CCCNC(=N)N)C(C)C)C(C)C)C(C)C)C(C)C)C(C)C)C(C)C)C(C)C)C(=O)N[C@@H](CCCNC(=N)N)C(=O)N[C@@H](CCCNC(=N)N)C(=O)O; test system = CD1 mouse, plasma; setting = intravenous, 15 mg/kg, 24 h, [14C]-labelled compound; endpoint = chloride; value = 98.7 mEq/L
SMILES = CCCCN1C(=O)c2cccc3c(NCCCCCCN4CCOCC4)ccc(c23)C1=O; test system = DMSO; endpoint = molar extinction coefficient; value = 13900 M⁻¹ cm⁻¹
SMILES = CCCC[C@H](NC(=O)COCCOCCNC(=O)CN1CCN(CC(=O)O)CCN(CC(=O)O)CC1)C(=O)N[C@H]1CC(=O)NCCCC[C@@H](C(N)=O)NC(=O)[C@H](Cc2c[nH]c3ccccc23)NC(=O)[C@H](CCCNC(=N)N)NC(=O)[C@@H](Cc2ccccc2)NC(=O)[C@H](Cc2c[nH]cn2)NC1=O [fluorine-18 labelled]; test = HPLC; test system = C57 mice, urine; setting = 1 h; endpoint = intact fraction; value = ~90%
SMILES = CCC(=O)N(C)c1ccc(Cl)c(Cl)c1; test system = female C57BL/6 mice; setting = oral, 10 mg/kg, 1 h; endpoint = plasma concentration; value = 62.8 ng/mL
SMILES = Cc1nn(-c2cccc(N)c2)c(=O)c2cnc(Nc3ccc(N4CCNCC4)cc3)nc12; target or system = G protein-coupled receptor kinase 3 (GRK3, Homo sapiens, UniProt P35626); test = enzyme activity, inhibitor; endpoint = IC50; value = > 10000 nM
SMILES = O=c1c2ccccc2[se]n1CCCCCCn1[se]c2ccccc2c1=O; test = shake-flask, RP-HPLC; test system = Tween 20; setting = 24 h, 25 °C; endpoint = solubility; value = 1060 ± 20 µg/mL (≈ 2220 µM)
SMILES = CN(O)C(=O)CCC(=O)NCCCN(CCCCN(CCCNC(=O)CCC(=O)N(C)O)C(=O)CCC(=O)N(C)O)C(=O)CCC(=O)N(C)O.[89Zr]; test = radio-TLC; test system = aqueous buffer; setting = 1 d, pH 5, 37 °C, 89Zr-labelled complex, with: DTPA 100-fold excess; endpoint = intact complex; value = 98.7 ± 0.5%
SMILES = CNS(=O)(=O)Nc1nccc(Cc2c(C)c3ccc(Oc4ncccc4F)cc3oc2=O)c1F; target or system = RL; test = cell viability, CellTiter-Glo; setting = 7 days; endpoint = IC50; value = 3.62 nM
SMILES = Cc1ncsc1-c1ccc(C(C)NC(=O)C2CC(O)CN2C(=O)C(NC(=O)CCCCCCCCCCN2CCCC(Nc3ncc(Cl)c(Nc4ccccc4S(=O)(=O)C(C)C)n3)C2)C(C)(C)C)cc1 (stereo not drawn); target or system = 22Rv1; test = RNA-seq, measured: SOWAHC mRNA; setting = concentration not given; how to read = relative to: DMSO; endpoint = log2 fold change; value = -1.17
SMILES = O=C1NC2(CC2)COc2ncc(F)cc2[C@H]2COCCN2c2ccn3ncc1c3n2; target or system = Salmonella typhimurium; test = Ames test; test system = TA1535; setting = 150 µg/plate, 48 h, with: without S9; endpoint = revertant colonies; value = 10 ± 3 revertants/plate
SMILES = Cc1cc(-c2ccc(C(=O)[C@@H]3CCCC[C@H]3C(=O)Nc3cnn4c3C(=O)NCC4)cc2)[nH]n1; test system = human, faeces; setting = oral, 200 mg, 0-264 h; how to read = relative to: dose; endpoint = cumulative recovery of radioactivity; value = 79.2%
SMILES = C[C@@]1(c2nc(-c3ccc(F)c4cn[nH]c34)no2)CCCN(C(=O)c2ccc(F)nc2)C1; test system = mouse; setting = intraperitoneal, 20 mg/kg; how to read = direction not given; endpoint = conditioned place preference score; value = 20.1 and 99.7 and 45.9 and 5.34 and 57.9
SMILES = C=CC(=O)N1CCCC(n2c(=O)c3ncccc3n(Cc3ccc(Oc4ccccc4)cc3)c2=O)C1 (stereo not drawn); test system = male BALB/c mice, plasma; setting = oral, 200 mg/kg, 6 h; endpoint = plasma concentration; value = 5070 ng/mL and 2920 ng/mL and 6240 ng/mL
SMILES = CN1CCCNC(=O)c2cccc(c2)C(=O)NCCCN(C)CCCNc2cccc3c2C(=O)c2cccc(c2C3=O)NCCC1; test system = mouse, serum; setting = dose not given; endpoint = uric acid; value = 2.4 mg/dL and 2.5 mg/dL and 2.2 mg/dL
SMILES = CC(C)C[C@H](NC(=O)[C@H](CCCN)NC(=O)CNC(=O)[C@@H](NC(=O)[C@H](C)NC(=O)[C@@H]1CSCSC[C@H](NC(=O)CC[C@H](N)C(=O)O)C(=O)N[C@@H](CC(N)=O)C(=O)N[C@@H]([C@@H](C)O)C(=O)N[C@@H](C)C(=O)N[C@@H]([C@@H](C)O)C(=O)N1)[C@@H](C)O)C(=O)N[C@@H](C)C(=O)N[C@@H](CCC(=O)O)C(=O)N[C@@](C)(Cc1ccccc1)C(=O)N[C@@H](CC(C)C)C(=O)N[C@H](C(=O)N[C@@H](CCCNC(=N)N)C(=O)N[C@@H](CO)C(=O)N[C@@H](CO)C(=O)N[C@@H](CC(N)=O)C(=O)N(C)[C@@H](CC(N)=O)C(=O)N[C@@H](Cc1ccccc1)C(=O)NCC(=O)N1CCC[C@H]1C(=O)N[C@@H](CCCCNC(=O)CC[C@H](NC(=O)CC[C@H](NC(=O)CCCCCCCCCCCCCCCCCCC(=O)O)C(=O)O)C(=O)O)C(=O)N[C@@H](CC(C)C)C(=O)N1CCC[C@H]1C(=O)N1CCC[C@H]1C(=O)N[C@H](C(=O)N[C@@H](CCC(=O)O)C(=O)N[C@H](C(=O)NCC(=O)N[C@@H](CO)C(=O)N[C@@H](CC(N)=O)C(=O)N[C@H](C(=O)N[C@@H](Cc1ccc(O)cc1)C(N)=O)[C@@H](C)O)C(C)C)[C@@H](C)O)C(C)C; test system = healthy human, plasma; setting = subcutaneous, 0.04 mg single dose, geometric LS mean; endpoint = AUC(0-tlast); value = 1830 ng·h/mL
SMILES = CCCC[C@H](OC(C)=O)c1ccccc1C(=O)O; test system = Sprague-Dawley rats, both sexes, whole blood; setting = intravenous, 1.25 mg/kg single dose; endpoint = AUC(0-inf); value = 1360 ± 190 ng·h/mL
SMILES = CCC1(CC)CC(=O)N(C2c3cc(C(=O)NC4c5ccccc5CC4O)ccc3OC2(C)COC)C(=N)N1 (stereo not drawn); test = metabolic stability; test system = dog, hepatocytes; endpoint = hepatocyte CLint; value = 4.9 µL/min/10⁶ cells
SMILES = O=C1C2CC3CC1CC(C(=O)N1CCN(c4ccc([N+](=O)[O-])c5ncccc45)CC1)(C3)C2; target or system = Salmonella typhimurium; test = Ames test; test system = TA1535; setting = 0.05 µg/well, with S9 activation; endpoint = revertant colony count; value = 1 colonies/well
SMILES = CN(CCNc1ccc2ncc(-c3ccc(C(N)=O)cc3)n2n1)C(=O)OC(C)(C)C; test system = mouse, SNL model, plasma; setting = oral, 60 mg/kg, 120 min; endpoint = free drug concentration; value = 1250 nM
SMILES = O=[N+]([O-])c1cccc(/C=N/Nc2nnc(N/N=C/c3cccc([N+](=O)[O-])c3)c3ccccc23)c1; test = haemolysis; test system = human; setting = 10 mM, 45 min; endpoint = haemolysis; value = 19.4%
SMILES = CCCCN1C(=O)c2cccc3c(NCCCCCCCCN4CCOCC4)ccc(c23)C1=O; test system = toluene; endpoint = molar extinction coefficient; value = 10900 M⁻¹ cm⁻¹
SMILES = Nc1ncc(-c2cc(-c3cnn(CC(F)(F)F)c3)ncc2F)nc1C(=O)NC1CNCC(F)C1 (stereo not drawn); target or system = FLT3-autoinhibited; test = KINOMEscan competition binding; setting = 1 µM; how to read = relative to: DMSO control; endpoint = remaining binding; value = 87%
SMILES = CC[C@H](C)[C@@H]1NC(=O)[C@H](Cc2ccc(O)cc2)NC(=O)CCCSC[C@@H](C(=O)N(CC(=O)N[C@@H](CC(C)C)C(=O)NCC(N)=O)Cc2ccc(F)cc2)NC(=O)[C@H](CC(N)=O)NC(=O)[C@H](CCC(N)=O)NC1=O; test system = healthy human, plasma; setting = intranasal, 400 µg every 3 h, after last dose; endpoint = AUC(0-t); value = 0.135 ng·h/mL
SMILES = O=C(Nc1cnccc1-c1ccc([18F])cc1)c1ccnc(NC(=O)C2CC2)c1; test = ex vivo gamma counting; test system = GSK-3β transgenic mice, late-stage, hippocampus; setting = intravenous, 1.26 MBq/animal, 120 min, mean, no P-gp inhibitor; endpoint = SUV; value = 0.12
SMILES = CNC(=O)C1CCCN(C(=O)C2CC3CCC2N3C(=O)[C@@H]2C[C@@H](O)CN2C(=O)NCc2cccc(Cl)c2F)C1 (mixture of isomers); target or system = Cytochrome P450 2D6 (CYP2D6, Homo sapiens, UniProt P10635); test = enzyme activity, inhibitor, time-dependent inhibition; setting = 0.617 µM, preincubated with NADPH; how to read = relative to: negative control; endpoint = remaining activity; value = 109%
SMILES = CC[C@H](C)[C@H](NC(=O)C[C@H](NC(=O)CN1CCN2CCN(CC1)CC(=O)[O][Al]([18F])[O]C(=O)C2)C(=O)O)C(=O)N[C@H]1CCc2cccc3c2N(C1=O)[C@H](C(=O)NCc1cn[nH]n1)C3; target or system = MC-38 tumour model; test system = host not given, liver; setting = 30 min, tumour-bearing; endpoint = tracer uptake; value = 0.9 %ID/g
SMILES = OC1(C(F)(F)F)CCN(c2nc(Nc3ccnc(C(F)(F)F)c3)nc(-c3cccc(C(F)(F)F)n3)n2)C1 (stereo not drawn); test system = Sprague-Dawley rat, both sexes, plasma; setting = oral gavage, 5 mg/kg; endpoint = MRT(0-inf); value = 24.7 ± 1.72 h
SMILES = CN([O-])C(=O)CN1CCNCCN(CC(=O)N(C)[O-])CC1.[89Zr+4]; test system = mouse, lung; setting = intravenous, 24 h; endpoint = tracer uptake; value = 0.07 %ID/g
SMILES = [123I]c1ccc2nc(-c3ccc(-n4ccnn4)nc3)cn2c1; test system = male Wistar rat, pancreas; setting = intravenous, 4 MBq, 3 h; endpoint = tracer uptake; value = 0.035 %ID/g
SMILES = C=CC(=O)Nc1cccc(Cn2ncc3cnc(Nc4cnn(CCOC)c4)nc32)c1; test system = dog, Beagle, both sexes, whole blood; setting = 5 µM, 60 min; endpoint = remaining compound; value = 64.6%
SMILES = COc1ccc2c(c1)CN(C(=O)CCN1CCC(Cc3ccccc3)CC1)CCS2; test system = paroxysmal AF patients; setting = oral, 540 mg, 210 min; how to read = relative to: baseline; endpoint = maximum QTcF change; value = 62.4 ms
SMILES = OC[C@H]1[C@@H](O)[C@H](O)[C@@H](O)CN1CCCCCOCc1ccc(-c2ccccc2)c(C(F)(F)F)c1; target or system = Beta-glucosidase (GBA2, Homo sapiens, UniProt Q9HCG7); test = inhibitor, 4MU-β-D-glucopyranoside; test system = HEK293T homogenates overexpressing GBA2; how to read = relative to: GBA1 IC50 over GBA2 IC50; endpoint = selectivity ratio; value = 60000

A few entries again:
SMILES = CNS(=O)(=O)Nc1nccc(Cc2c(C)c3ccc(Oc4ncccc4F)cc3oc2=O)c1F; target or system = RL; test = cell viability, CellTiter-Glo; setting = 7 days; endpoint = IC50; value = 3.62 nM
SMILES = COC1CN([C@H]2CC[C@H]([C@@]3(C)Oc4c(Cl)cc(C(=O)NCc5c(SC)cc(C)[nH]c5=O)c(C)c4O3)CC2)C1; test = RNA-seq, measured: TBC1D12 mouse homolog; test system = mouse, HT-1376 xenograft, whole blood; setting = dose not given; how to read = relative to: vehicle; endpoint = log2 fold change; value = 0.563
